Measurements from different studies.
Every numbered part comes from another study and shows a few of its results, in no order.

Sample 1 — method: competition protein-binding microarray; molecule type: double-stranded DNA, one strand shown; sample: in vitro; tested at: 2 µM; together with: Pho4 competitor, 0.05 µM; reading: higher = stronger binding; constant ends, left off below: … GTCTTGATTCGCTTGACGCTGCTG
Target: Centromere-binding protein 1, full length, His-tagged (CBF1, Saccharomyces cerevisiae, UniProt P17106, residues 1-351)
UniProt P17106, sequence (whole entry, looked up): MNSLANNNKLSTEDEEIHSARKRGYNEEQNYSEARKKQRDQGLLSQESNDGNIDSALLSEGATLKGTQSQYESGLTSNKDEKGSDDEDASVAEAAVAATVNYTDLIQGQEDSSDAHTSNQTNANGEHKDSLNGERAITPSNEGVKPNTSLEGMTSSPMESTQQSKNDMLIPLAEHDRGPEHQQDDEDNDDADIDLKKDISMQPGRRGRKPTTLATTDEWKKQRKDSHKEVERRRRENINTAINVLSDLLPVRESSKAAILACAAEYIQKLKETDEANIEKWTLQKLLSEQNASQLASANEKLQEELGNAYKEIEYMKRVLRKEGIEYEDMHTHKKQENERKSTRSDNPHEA
Setting: whole 60-bp probe, lowest competitor level
Oligonucleotide	fluorescence intensity
CTAACGAAGGTTTTTCACGTGGTCTACAAGCCAAGT	1140 a.u.
CGCGATGTTCTCAGCATCGTGTAACCTTTGCTCGTA	71.5 a.u.
TAATTTTCAAACGACCACGCACCGCGAGAGAAAAGA	82.5 a.u.
ACCGGCAAAATACTACACGTGCCAGTACGGCACCAA	1600 a.u.
CGACATCTATCGCCATTCGTGCGGACATTTCTCGAA	61.5 a.u.
CTGTCCATAACTTCTCTCGTGACTCGGCCAAGGATG	395 a.u.
CTTTCCCGATCTTGCTAAGTGGGTGTAGCACATTTG	68.9 a.u.
ACAGAAACGAAGTATACCGTGCGATTGATTATGGTC	67.7 a.u.
GTCTTGTCTCATTGACGAGTGGGTGTCCCCACTTCA	86.9 a.u.
CTAACGAAGGTTTGTGTTGTGGGTGACAAGCCAAGT	80.6 a.u.
AGACCAGATGGGGTCCACGTTATCAACGTTGGTAAG	92.8 a.u.
CTCTACCAGCACCATCACCTGTGAAATATTGACCAG	91.7 a.u.
CTAACGAAGGTTTGACCCGTGGGTGACAAGCCAAGT	71.8 a.u.
AGAATCACCCCATCTTACGTGGCAATCACCGATGAT	63.8 a.u.
CCCGCCCCGCTCGGTCACGTGAGCCTGGCTCTCACC	9420 a.u.
AGCCGACGCCGTAGTCGCGTGCCGATGCCCTTAGCG	82.4 a.u.
CTTCTGTAAATTTGTCACCATACTTGACGCGCCCCG	103 a.u.
AAAGCGGTAATTTGTAAGGTGGGTGCAGATATCTAT	78.1 a.u.
GGGTGCCGGTACTTCCACGGGCCTCCAGTCCAGGAC	50.3 a.u.
AAATTACTAAGTTGTCCCGTGGGTGACGCCGTATGA	99.7 a.u.
AAAGCGGTAATTTGTCACTTAACTTCACATATCTAT	98.4 a.u.
CGTCCTAGTGATTGGCTGGTGGGTGCCATGAGGAAG	75.1 a.u.
CTAACGAAGGTTTGCCGTGTGGGTGACAAGCCAAGT	66.3 a.u.
CATACCCAACCTTGCCTTGTGGGTGAAGATATTTGT	79.4 a.u.
GTCAATGCAGTCATCCTCGTGAAATCTGGAATGAAT	89.7 a.u.

Sample 2 — method: RNA Bind-n-Seq; molecule type: RNA; sample: in vitro; tested at: 365 nM; baseline: no-protein control; reading: higher = stronger binding
Target: RNA binding protein fox-1 homolog 2, RRM domain, GST-SBP tag (RBFOX2, Homo sapiens, UniProt O43251-10, residues 100-194)
Setting: natural RNA segment, single round, ends assumed
Constant ends, left off below: GGGAGUUCUACAGUCCGACGAUC … UGGAAUUCUCGGGUGCCAA
Residues (chain): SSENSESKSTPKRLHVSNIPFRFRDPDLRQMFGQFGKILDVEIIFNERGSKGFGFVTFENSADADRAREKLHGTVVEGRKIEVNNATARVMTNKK
Oligonucleotide	RBNS enrichment (R)
UAGCCUGUAUGAAAUCACUAGUCCUUAUUUUUAAAGGUCUAUGGUUUCUUGGAAGUAGUUUGAUUGUUGAGAGAGACCUUUGAUCUGCAGUGUAAAUCUACCAGUCAUGG	0.603
CUCAAGAGGAUGGAGCUACUAGCUGCUGUGGUCUGCAGUCCAGGUUAAUGGAACAUUGUACAGUGAAGAGACGACCUGGCAAGUUCUUUGUAGACGUGUUUCAGUGCCUC	0.476
AAGUGUUCUUUGAUUUUGGCUUUGAGGCUGCCAUUUCUGGAAUAAGGGGGGAUGGGAAACAGCUGACUUCAAUUACCGUGCUGUAUAUUACCGUGCUGUAUACCUAUCUA	0.432
CUUUGUUGCUUCCUUCCCUGGAGAGCAACACUACCUCCUGGGCUUUACCAAGCACCACCCUAACCUCUAAAAUCAGAGUUCAGCUGAGCUAUUAGUAGUGGGUGGUCACC	0.225
CAAUGUACAAAUCAAUGUUUUGAAAAUAAUGAUCUCAGACUUUCUAAGUUAAAUUUUAAACAAUUUGAUUGUUUGCCAUAUUGGGUGGGGUUACUCUUAGAAUCGCAUGC	40.1
GCGGGCUUGCUGCUUCACCCUUGGGGAUGAAAUAAUGGAAGCUGGUUAAAGUGGAUGAGGUUGGAAAGAGUUGCCAUAAUGAGGUCCCACGUGGCUUCUUCGAUAGGAGC	1.26
UUCCAUGUCCUAGGCAAGCCACUUGUUAACCCUGAGUGACAAUCUUUAUAAAUCAUUGUUAAUUCAGAGAUUUGUACGUGAGAAAACAACAACAAAAUUAGAGACUAUCU	0.381
CGUUAUCUUAAGGUGCAGUUUUAAGGUUCAGGCAUGCGCUCUGGCUCAUAGUGUUUGAAAGUGAUGUCCAUUAGUGGGACCGUAGCAUGCUUGCCUCGCAUAGAGUGCAG	4.54
UGACUUGGACACGGUAACUGUUGCAGUUUUAGACUCAGCAUUGUGACACUUCCCAAGAAGGCCAAACCUCUAACCGACAUUCCUGAAAUACGUGGCAUUAUUCUUUUUUG	0.641
ACCGAAUGAUCAGCUGCAUAGCAAAGGACUGUGCCGCUGGCAUAUUGAUCUCAGAUAAAAACUUGUGGACUUGGCUGACACUCUCCCUUGCCCUGAAAUCUCAAUGUCUA	0.357
CAUGUUUAUUUGCACCUGAUGCUCAGGAGCCAGAUGUGGACCCUGCAGAGCCAGGCUUGUACCACAGCUCAGAGGCGUCAAGUUUCCAAUUAAAGCCACUGGAGAAAACC	0.382
ACUAGUUCUGUCCCCCCAGGAGACCUGGUUGUGUGUGUGUGAGUGGUUGACCUUCCUCCAUCCCCUGGUCCUUCCCUUCCCUUCCCGAGGCACAGAGAGACAGGGCAGGA	0.491

Sample 3 — method: protein binding microarray; molecule type: double-stranded DNA, one strand shown; sample: in vitro; tested at: not given; baseline: not given; reading: higher = stronger binding
Target: Histone acetyltransferase KAT6A, both winged helices, GST fusion (KAT6A, Homo sapiens, UniProt Q92794, residues 1-181)
Setting: 8-mer, flanks averaged, mean of 2 arrays, mostly near background
Construct (chain): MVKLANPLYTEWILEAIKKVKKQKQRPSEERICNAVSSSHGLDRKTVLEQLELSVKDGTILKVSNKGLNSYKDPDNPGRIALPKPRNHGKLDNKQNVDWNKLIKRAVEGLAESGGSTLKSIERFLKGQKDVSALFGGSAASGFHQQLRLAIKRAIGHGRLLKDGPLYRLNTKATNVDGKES
Oligonucleotide	E-score
AGGATATA	-0.15
CCTTGGTA	-0.0426
AGCATAGC	-0.0566
AAGCTTGT	-0.037
TCCCTAAA	-0.23
GAAATGCA	-0.239
GGTCCTGA	0.0325
CTGAATGA	-0.0936
TGATTTAA	-0.0383
AAGGACAC	-0.121
ATCGTTTA	0.0451
AACTGTGG	-0.0753
CCAGATCA	-0.0643
AGTACTTG	-0.0196
AGCCCCTA	-0.31
CCTCGATA	0.129
ATGTAACC	0.163
AGGTGGAG	-0.257
AGAAGCGA	-0.00142
CAATTAAC	0.0541
TAGTCGCA	0.0713
CGGGGGAA	0.0764
ATACTGCA	-0.0539
CACCGTCG	0.22
ATTCCGGC	0.15

Sample 4 — method: RNA Bind-n-Seq; molecule type: RNA; sample: in vitro; tested at: 200 nM; setting: whole 134-nt RNA, ends assumed; together with: 150 mM KCl; baseline: input library; reading: higher = stronger binding
Target: Fragile X messenger ribonucleoprotein 1, C-terminal low-complexity region (Fmr1, Mus musculus, UniProt P35922)
Constant ends, left off below: GGGAGUUCUACAGUCCGACGAUC … UGGAAUUCUCGGGUGUCAAGG
Oligonucleotide	log2 enrichment
UCCUGUGCUACACAUCGUAUGUACCGAAUCAAAUUUUUAAACCCCCAAACCCCCCCAAAAAAGUAUUAUGUUACGCCGUUCGGAUCUGCA	0.00422
AAGUCCUGUGCUACACAUCGUAUGUACCGAAUCGGCCCCCGGCCCCCGGGCCCCCGGAAAGUAUUAUGUUACGCCGUUCGGAUCUGCACU	-0.241
UCUGCUAAAGAGAAAGGAAAAUUUGAAGAUAUGGCAAAAGCGGACAAGGCCCGUUAUGAAAGAGAAAUGAAAACCUAUAUCCCUCCCAAA	0.144
GUCCUGUGCUACACAUCGUAUGUACCGAAUCGGUUUUUGGGGUUUUUGGGUUUUUGGGGAAAGUAUUAUGUUACGCCGUUCGGAUCUGCA	0.102
UCCUCAAGUCCUGUGCUACACAUCGUAUGUACCGAAUCGGGGUGGUGGGUGGAAAGUAUUAUGUUACGCCGUUCGGAUCUGCACUUCCAG	0.677
UAGCUAAACUAAUGUCAACUUAUUUCCUUUUUUCCUUUAGCCACCAUCAAAGAACAGACGAGAGAGAACAGAACUGAAGCCUGAUUUCUU	-0.68
GUCCUGUGCUACACAUCGUAUGUACCGAAUCAAAUUUUUAAACCCAAACCCCCCCAAAAAAGUAUUAUGUUACGCCGUUCGGAUCUGCAC	-0.196
AAGUCCUGUGCUACACAUCGUAUGUACCGAAUCGGGGUUUGGGGUGGGGUUUGGGGAAAGUAUUAUGUUACGCCGUUCGGAUCUGCACUU	0.857
UCCUGUGCUACACAUCGUAUGUACCGAAUCGGCCCCCCGGCCCCCCGGGCCCCCCGGGGAAAGUAUUAUGUUACGCCGUUCGGAUCUGCA	-0.227
CACAGGCAACACGCACCCACACAGACACAGAGGGAAGGGGUUGGGAUGGGGACAGGGUGCACAGCAGGGCGGGGUAGGACCCCAGCCCCU	1.24
UGGGAGGUGGAUUUUGUUUAUUUUUUUAGCUCAUUUCCAGGGGUGGGAAUUUUUUUUUAAUAUGUGUCUUGAAUAAAGUUGUUUUUGAAA	0.239
ACCAUGCAGGUGGGCAUCUUUGGGGAGUGGGGCAAGGGGGGGAUAGGGAGGGGGGUAACACUUUGGGAACAGGUGGUCCCAGGUCGUUUC	0.872
UCAAGUCCUGUGCUACACAUCGUAUGUACCGAAUCGGUUUGGAAAAAGGUUUGGAAAGUAUUAUGUUACGCCGUUCGGAUCUGCACUUCC	-0.785
CUCAAGUCCUGUGCUACACAUCGUAUGUACCGAAUCGGGCCGGCCGGGCCGGGAAAGUAUUAUGUUACGCCGUUCGGAUCUGCACUUCCA	-0.123
